Experimental data collected from several papers.
Numbers after ± are the reported error.
Organism: Klebsiella pneumoniae

N#CC(=Cc1ccccc1O)C1=NC(=O)C(=Cc2cn(-c3ccccc3)nc2-c2ccccc2)S1 has an MIC of 0.46 µg/mL (microbial growth, broth dilution).
The MIC of CCCCCCCCCC(=O)N[C@@H](CCCCN)CN1CC(=O)N(c2ccc(N3CN(C[C@H](CCCCN)NC(=O)CCCCCCCCC)CC3=O)cc2)C1 is reported as less than 6 µg/mL (microbial growth; ATCC13383).
CCCCCCCC(=O)N[C@@H](CCN)C(=O)N[C@@H](CCN)C(=O)N[C@@H](CCN)C(=O)N[C@H](Cc1ccccc1)C(=O)N[C@@H](CC(C)C)C(=O)N[C@@H](CCN)C(=O)N[C@@H](C(=O)N[C@@H](CC(C)C)C(=O)N[C@@H](CCN)C(N)=O)C(C)C has an MIC of 0.0625 to 0.125 µg/mL (checkerboard, refers to: rifampicin; ATCC 13883; sensitization to antibiotics, with: compound at 2 µg/mL).
For CCOC(=O)c1c(N)csc1-c1cn(-c2ccccc2)nc1-c1ccc(C)cc1, the MIC was 0.125 ± 0.3 µg/mL (broth microdilution; clinical urinary isolate; compound gamma-irradiated 20 kGy).
CC[C@H](C)[C@H](NC(=O)[C@H](CCCNC(=N)N)NC(=O)[C@@H](N)CCCNC(=N)N)C(=O)N[C@@H](CCCNC(=N)N)C(=O)N1CCC[C@H]1C(=O)N[C@@H](CCCNC(=N)N)C(=O)N1CCC[C@H]1C(=O)N1CCC[C@H]1C(=O)N[C@@H](CCCNC(=N)N)C(=O)N[C@@H](CC(C)C)C(=O)N1CCC[C@H]1C(=O)N[C@@H](CCCNC(=N)N)C(=O)N1CCC[C@H]1C(=O)N[C@@H](CCCNC(=N)N)C(=O)N1CCC[C@H]1C(=O)N[C@@H](CCCNC(=N)N)C(=O)N1CCC[C@H]1C(=O)N[C@@H](CC(C)C)C(=O)N1CCC[C@H]1C(=O)N[C@@H](Cc1ccccc1)C(=O)N1CCC[C@H]1C(=O)N[C@@H](CCCNC(=N)N)C(=O)N1CCC[C@H]1C(=O)NCC(=O)N1CCC[C@H]1C(=O)N[C@@H](CCCNC(=N)N)C(=O)N1CCC[C@H]1C(=O)N[C@H](C(=O)N1CCC[C@H]1C(=O)N[C@@H](CCCNC(=N)N)C(=O)N1CCC[C@H]1C(=O)N[C@@H](CC(C)C)C(=O)N1CCC[C@H]1C(=O)N[C@@H](Cc1ccccc1)C(=O)N1CCC[C@H]1C(=O)O)[C@@H](C)CC gave an MIC of 0.5 µmol/L (broth microdilution; NTUH K2044, Mueller Hinton broth; 24 h, 37 °C).
`colistin` has an MIC of 2 µg/mL (NCTC 13438; 5% CO2).
O=C(O)c1cn(C2CC2)c2cc(N3CCNCC3)c(F)cc2c1=O has an MIC of 2.9 µmol/L (microbial growth, broth dilution; ATCC33495 DSM11678; 20 h).
With O=C(O)c1cn(C2CC2)c2cc(N3CCNCC3)c(F)cc2c1=O the MIC was 0.49 µg/mL (microbial growth, broth dilution).
With `Polymyxin B` the MIC was 2 µg/mL (NCTC 13438; 5% CO2).
For CCCCCCCC(=O)N[C@@H](CCCN)C(=O)N[C@H](C(=O)N[C@@H](CCCN)C(=O)N[C@H](Cc1ccccc1)C(=O)N[C@@H](CC(C)C)C(=O)N[C@@H](CCCN)C(=O)N[C@@H](C(=O)N[C@@H](CC(C)C)C(=O)N[C@@H](CO)C(N)=O)C(C)C)[C@@H](C)CC, the MIC was 0.0313 to 0.0625 µg/mL (checkerboard, refers to: rifampicin; ATCC 13883; sensitization to antibiotics, with: compound at 2 µg/mL).
CC1(C)S[C@@H]2[C@H](NC(=O)[C@H](N)c3ccccc3)C(=O)N2[C@H]1C(=O)O has an MIC of greater than 367 µmol/L.
With CC[C@H](C)[C@H](NC(=O)[C@H](CCCNC(=N)N)NC(=O)[C@@H](N)CCCNC(=N)N)C(=O)N[C@@H](CCCNC(=N)N)C(=O)N1CCC[C@H]1C(=O)N[C@@H](CCCNC(=N)N)C(=O)N1CCC[C@H]1C(=O)N1CCC[C@H]1C(=O)N[C@@H](CCCNC(=N)N)C(=O)N[C@@H](CC(C)C)C(=O)N1CCC[C@H]1C(=O)N[C@@H](CCCNC(=N)N)C(=O)N1CCC[C@H]1C(=O)N[C@@H](CCCNC(=N)N)C(=O)N1CCC[C@H]1C(=O)N[C@@H](CCCNC(=N)N)C(=O)O the MIC was 1 µmol/L (broth microdilution; NTUH K2044, Mueller Hinton broth; 24 h, 37 °C).
With CCCCCCCC(=O)N[C@@H](CCN)C(=O)N[C@H](C(=O)N[C@@H](CCN)C(=O)N[C@H](Cc1ccccc1)C(=O)N[C@@H](CC(C)C)C(=O)N[C@@H](CCN)C(=O)N[C@@H](C(=O)N[C@@H](CC(C)C)C(=O)N[C@@H](CCN)C(N)=O)C(C)C)[C@@H](C)CC the MIC was 0.0019 to 0.0039 µg/mL (checkerboard, refers to: rifampicin; ATCC 13883; sensitization to antibiotics, with: compound at 2 µg/mL).
The MIC of CC(C)(S)C(NC[C@H](NC[C@H](N)C(=O)O)C(=O)O)C(=O)O (stereo in doubt) is reported as 32 µg/mL (broth microdilution; ATCC 33495 expressing NDM-1).

Some of these lines once more:
O=C(O)c1cn(C2CC2)c2cc(N3CCNCC3)c(F)cc2c1=O has an MIC of 2.9 µmol/L (microbial growth, broth dilution; ATCC33495 DSM11678; 20 h).
